Measured values gathered from unrelated publications.
Compare with care: the assays were run in different laboratories.

`CC(C)(C(=O)N1CCOc2c(C#N)cncc2C1)C(F)F`: “subjects with TEAE” 0% (refers to: medical device site dermatitis; healthy humans, both sexes; oral, 30 mg single dose).
`Cc1cc(-c2nccc3c2ccn3CC(=O)Nc2ccc(-c3cnccn3)cn2)ccn1` — result for “subjects with Vomiting TEAEs”: 0% (human; SAD part, single 7 mg dose).
Under “subjects with frequent bowel movements”, `C[C@@H](Oc1ccc(S(C)(=O)=O)cc1C(=O)N1C[C@@H]2C[C@]2(c2cc(C(F)(F)F)on2)C1)C(F)(F)F` is recorded as 16.7% (human; oral, 25 mg).
Under “subjects with TEAEs”, `C[C@@H](c1nc(-c2ccc(C#N)cc2)cs1)[C@](O)(Cn1cncn1)c1cc(F)ccc1F` is recorded as 8.3% (refers to: contact dermatitis; humans; oral, dose not given, together with: ketoconazole).
`C[C@H]1CN(C(=O)CC#N)[C@]12CCN(c1ncnc3[nH]ccc13)C2` — result for “subjects with Vomiting”: 3.1% (healthy human; oral, dose not given).
For `CNC(=O)c1ccc(-c2cnc3ncc(Cc4ccc5ncccc5c4)n3n2)cc1F`, “subjects with adverse event” read 7.4% (healthy human subjects; oral, 200 mg, Hypertension, all grades, all causality, together with: itraconazole 200 mg/day).
`Cc1cc(Nc2cc3ncccc3c(N[C@@H]3C[C@H]4CC[C@@H](C3)N4CCC#N)n2)n[nH]1` — result for “subjects with contact dermatitis”: 0% (healthy human; oral, 300 mg multiple doses, 14 days).
Under “subjects with headache”, `CN1CCN(c2cccc3c2CCN(C(=O)/C=C/c2c(-n4cnnn4)ccc(Cl)c2F)[C@@H]3C(=O)Nc2ccc(C(=O)O)cc2)C(=O)C1` is recorded as 16.7% (healthy human subjects; intravenous infusion, 1.5 mg/h, 2 h).

For quick reference, copied from above:
Under “subjects with TEAEs”, `C[C@@H](c1nc(-c2ccc(C#N)cc2)cs1)[C@](O)(Cn1cncn1)c1cc(F)ccc1F` is recorded as 8.3% (refers to: contact dermatitis; humans; oral, dose not given, together with: ketoconazole).
